Results from different studies.
“And” joins repeats or separate records; there may be more than shown. ± gives the spread as reported.
rep main protease: Replicase polyprotein 1ab, main protease (rep, Severe acute respiratory syndrome coronavirus 2, UniProt P0DTD1)
rep methyltransferase: Replicase polyprotein 1ab, methyltransferase (rep, Severe acute respiratory syndrome coronavirus 2, UniProt P0DTD1)
rep papain-like protease: Replicase polyprotein 1ab, papain-like protease (rep, Severe acute respiratory syndrome coronavirus 2, UniProt P0DTD1)
rep nsp13 helicase: Replicase polyprotein 1ab, nsp13 helicase (rep, Severe acute respiratory syndrome coronavirus 2, UniProt P0DTD1)

CCOC(=O)ONC(=O)CC(c1ccccc1)c1ccccc1  IC50 (rep main protease; enzyme activity, inhibitor, FRET): 18.8 µM
N#Cc1ccccc1C[C@@H](N)C(=O)N[C@H](Cc1ccc(Cl)cc1Cl)C(=O)N[C@H](CC(=O)Nc1nnc(N)[nH]1)Cc1ccc(F)cc1  IC50 (rep main protease; enzyme activity, inhibitor, fluorescence): 8 µM
CC1=C(c2ccccc2)C1C(=O)NCc1nc(-c2ccc([N+](=O)[O-])cc2)no1 (centres unmarked)  IC50 (rep main protease; enzyme activity, inhibitor, FRET): 19.7 µM
CC1CC(c2ccc(C(=O)O)cc2F)=NN1c1ccc(C#N)c(Cl)c1 (centres unmarked)  IC50 (rep methyltransferase; enzyme activity, inhibitor): 3.98 µM
CCc1cccc2c(C(=O)NC3CCN(C(=O)C(C)C)CC3)c[nH]c12  IC50 (rep main protease; enzyme activity, inhibitor, FRET): 4.64 µM
C[C@H]1CC[C@@H]2[C@H]([C@@H]1n1[se]c3ccccc3c1=O)C2(C)C  IC50 (rep main protease; enzyme activity, inhibitor): 0.312 µM
CCCC(C(=O)Nc1ccccc1C)n1c(SCc2ccc(F)cc2)nc2cccnc21 (centres unmarked)  IC50 (rep papain-like protease; enzyme activity, inhibitor): > 20 µM
O=C(c1cncc2cc[nH]c12)N1CCC(=C2c3ccccc3CS(=O)(=O)c3ccccc32)CC1  IC50 (rep main protease; enzyme activity, inhibitor): 0.009 µM and 0.0089 µM
CCCOc1cc(Cl)cc(-c2cc(-c3ccccc3C#N)cn(-c3cncnc3)c2=O)c1  IC50 (rep main protease; enzyme activity, inhibitor; SARS-CoV-2; Mpro, compound fluorescence interfered): 1 to 10 µM
O=c1c(O)c(-c2ccc(O)cc2)oc2c(O)c(O)cc(O)c12  IC50 (rep main protease; inhibitor): 6.25 ± 0.3 µM
Cc1cc(C(=O)COn2nnc3ccc(S(C)(=O)=O)cc32)c(C)n1C  IC50 (rep main protease; enzyme activity, inhibitor): 4.67 µM
Cc1oc2nc1C(=O)N[C@](C)(C(=O)NCCc1ccc(N3CCCCC3)cc1)c1nc(c(C)o1)C(=O)N[C@](C)(C(=O)NCCc1ccc(N3CCCCC3)cc1)c1nc(c(C)o1)C(=O)N[C@]2(C)C(=O)NCCc1ccc(N2CCCCC2)cc1  IC50 (rep main protease; enzyme activity, inhibitor): 15.3 µM
CN(C)S(=O)(=O)c1ccc2nnn(OCc3ccc(C(C)(C)C)cc3)c2c1  IC50 (rep main protease; enzyme activity, inhibitor): > 100 µM
CCCCc1ccc(NC(=S)N/N=C/c2ccc(O)cc2)cc1  IC50 (rep main protease; enzyme activity, inhibitor, FRET): 34.2 µM
CC(=O)NS(=O)(=O)c1ccc(C2=NN(c3ccc(C#N)c(Cl)c3)C(C)C2)cc1 (centres unmarked)  IC50 (rep methyltransferase; enzyme activity, inhibitor): 2 µM
CCC(C(=O)Nc1ccc(F)cc1)n1c(SCc2ccc(F)cc2)nc2ncccc21 (centres unmarked)  IC50 (rep papain-like protease; enzyme activity, inhibitor): > 20 µM
CC1CCc2c(sc3ncnc(Sc4nnc(CN5CCCC5)o4)c23)C1 (centres unmarked)  IC50 (rep main protease; enzyme activity, inhibitor): 14.8 µM
O=C(CCN(Cc1ccco1)C(=O)c1csc(Nc2ccccc2)n1)NCc1cccc(C(F)(F)F)c1  IC50 (rep main protease; Rev-Nluc reporter, inhibitor): < 50 µM
Nc1nnc(SC2CC(=O)N(c3cccc4ccccc34)C2=O)s1 (centres unmarked)  IC50 (rep main protease; enzyme activity, inhibitor; 10 min preincubation): 1.52 ± 0.04 µM
O=C(Oc1cncc(Cl)c1)c1cccs1  IC50 (rep main protease; enzyme activity, inhibitor): 1.9 µM
CC(=O)c1ccc(C)cc1OC(=O)c1nc(S(=O)(=O)Cc2ccccc2F)ncc1Cl  IC50 (rep main protease; enzyme activity, inhibitor; 5 min): 3.8 ± 0.5 µM
OCC1OC(Oc2cc3c(O)cc(O)cc3[o+]c2-c2ccc(O)c(O)c2)C(O)C(O)C1O (centres unmarked)  IC50 (rep main protease; enzyme activity, inhibitor): 65.1 µM
O=c1c2ccccc2sn1-c1ccccc1  IC50 (rep main protease; enzyme activity, inhibitor; 10 min preincubation): 0.19 ± 0.02 µM
C#Cc1cccc(CCNC(=O)[C@@H](c2cncnc2)N(C(=O)[C@H](F)Cl)c2ccc(S(F)(F)(F)(F)F)cc2)c1  IC50 (rep main protease; enzyme activity, inhibitor): 0.11 µM
CC(=O)N[C@H](Cc1ccc(O)cc1)C(=O)N[C@@H](CCCNC(=N)N)C(=O)N[C@@H](Cc1ccccc1)C(=O)N[C@H]1CCC[C@@H]1C(=O)N[C@@H](CCCNC(=N)N)C(=O)N[C@@H](CC(N)=O)C(=O)N[C@H]1CCC[C@@H]1C(=O)N[C@H](C(=O)N[C@@H](Cc1ccccc1)C(=O)N[C@H]1CCC[C@@H]1C(=O)N[C@@H](Cc1ccccc1)C(=O)N[C@@H](Cc1ccc(O)cc1)C(=O)N[C@H]1CCC[C@@H]1C(=O)N[C@H](C(=O)N[C@@H](CC(=O)O)C(N)=O)[C@@H](C)O)C(C)C  IC50 (rep main protease; enzyme activity, inhibitor): 0.96 µM
O=C1CC(c2ccccc2)Oc2cc(O[C@@H]3O[C@H](CO)[C@@H](O)[C@H](O)[C@H]3O)ccc21 (some centres unmarked)  IC50 (rep nsp13 helicase; helicase ATPase activity, inhibitor; together with: poly(A) ssRNA): > 30 µM
Nc1ncnc2c1ncn2[C@@H]1O[C@H](CSCc2cc(C(=O)O)cc(-n3ccnc3)c2)[C@@H](O)[C@H]1O  IC50 (Replicase polyprotein 1ab, nsp16 with nsp10 (rep, Severe acute respiratory syndrome coronavirus 2, UniProt P0DTD1); methyltransferase activity, inhibitor; 30 min, 30 °C, together with: SAM 10 µM): 0.006 ± 0.0004 µM
CN(C)CCCCNC(=O)C[C@H](Cc1ccc(F)cc1)NC(=O)[C@@H](Cc1ccccc1Cl)NC(=O)[C@H](N)Cc1ccccc1C#N  IC50 (rep main protease; enzyme activity, inhibitor, fluorescence): 0.2 µM
Cc1ccc(OCCN(C)C)cc1C(=O)N[C@H](C)c1cc(-c2cnn(C)c2)cc(-c2cnn(C3CC3)c2)c1  IC50 (rep papain-like protease; enzyme activity, inhibitor, FRET): 0.103 µM
O=C(Nc1ccccc1)c1ccccc1[Se][Se]c1ccccc1C(=O)Nc1ccccc1  IC50 (rep main protease; enzyme activity, inhibitor; pH 7.3): 0.065 µM
O=C(OCc1ccccc1)ONC(=O)c1ccccc1  IC50 (rep main protease; enzyme activity, inhibitor, FRET): 11.7 µM
O=C(/C=C/c1ccc(O)cc1)OC[C@H]1O[C@@H](Oc2cc(O)c3c(=O)cc(-c4ccc(O)cc4)oc3c2)[C@H](O)[C@@H](OC(=O)/C=C/c2ccc(O)cc2)[C@@H]1O  IC50 (rep main protease; enzyme activity, inhibitor; together with: fluorogenic substrate): 8.35 ± 0.35 µM
COc1cc(Oc2c(O)cc(C)cc2OC)c(C(=O)O)c(C)c1O  IC50 (rep main protease; enzyme activity, inhibitor, FRET): 5.2 µM
CSC[C@H]1O[C@@H](n2cnc3c(N)ncnc32)[C@H](O)[C@@H]1O  IC50 (Replicase polyprotein 1ab, nsp14 (rep, Severe acute respiratory syndrome coronavirus 2, UniProt P0DTD1); nsp14 methyltransferase activity, inhibitor, radiometric SPA; 20 min, together with: 3H-SAM 250 nM, RNA 50 nM): 17 ± 2 µM
O=c1c(O[C@@H]2O[C@H](CO)[C@@H](O)[C@H](O)[C@H]2O)c(-c2ccc(O)c(O)c2)oc2cc(O)cc(O)c12  IC50 (rep nsp13 helicase; helicase unwinding activity): > 30 µM
Cc1ccc(OCCN(C)C)cc1C(=O)N[C@H](C)c1cc(-c2cnn(CF)c2)cc(-c2ccn(C)n2)c1  IC50 (rep papain-like protease; enzyme activity, inhibitor, FRET): 0.0867 µM
COC(=O)C(NC(=O)CC(OC(C)=O)C(Cc1ccccc1)NC(=O)OC(C)(C)C)C(C)C (centres unmarked)  IC50 (rep papain-like protease; enzyme activity, inhibitor, FRET): 4.06 µM
COc1cc(OC)cc(C(=O)N(CCC(=O)N2CCNCC2)Cc2cccc(Cl)c2)c1  IC50 (Replicase polyprotein 1ab, nsp3 macrodomain (rep, Severe acute respiratory syndrome coronavirus 2, UniProt P0DTD1); binding, FRET; SARS-CoV-2): 45 ± 10.9 µM
COc1cc(C(O)C(N)CO)ccc1O (centres unmarked)  IC50 (rep main protease; enzyme activity, inhibitor, FRET): 0.476 ± 0.02 µM
N#Cc1ccccc1CC(N)C(=O)NC(Cc1ccc(Cl)cc1Cl)C(=O)NC(CC(=O)NCCCc1cccnc1)Cc1ccc(F)cc1 (centres unmarked)  IC50 (rep main protease; enzyme activity, inhibitor, fluorescence): 0.04 µM
COC(=O)Cn1[se]c2ccccc2c1=O  IC50 (rep main protease; enzyme activity, inhibitor): 0.167 µM
CNc1nc(NC(CCO)c2ccccc2Cl)nc(N2CCN(C(=O)CCl)C(C(=O)NCC(N)=O)C2)n1 (centres unmarked)  IC50 (rep main protease; enzyme activity, inhibitor): 0.34 µM
CN(C)CCCCNC(=O)C[C@H](Cc1ccc(F)cc1)NC(=O)[C@@H](Cc1ccc(Cl)cc1Cl)NC(=O)CCc1ccccc1C#N  IC50 (rep main protease; enzyme activity, inhibitor, fluorescence): 0.07 µM
CC(C)[C@@H]1CC[C@@H](C)C[C@H]1n1[se]c2ccccc2c1=O  IC50 (rep main protease; enzyme activity, inhibitor): 0.346 µM
O=C(O)C(O)Cc1ccc(O)c(O)c1 (centres unmarked)  IC50 (rep papain-like protease; enzyme activity, inhibitor, fluorescence): > 100 µM
CC(C)(C)c1ccc(N(C(=O)C(F)Cl)C(C(=O)NCCc2cccc(F)c2)c2cccnn2)cc1 (centres unmarked)  IC50 (rep main protease; enzyme activity, inhibitor): > 20 µM
CC(C)=CCc1c(O)ccc(C(=O)C2C(c3c(O)cc(O)c4c(=O)c(CC=C(C)C)c(-c5ccc(O)cc5O)oc34)C=C(C)CC2c2ccc(O)cc2O)c1O (centres unmarked)  IC50 (rep methyltransferase; enzyme activity, inhibitor; pH 7.5): 13.3 µM

A few entries again:
CCCC(C(=O)Nc1ccccc1C)n1c(SCc2ccc(F)cc2)nc2cccnc21 (centres unmarked)  IC50 (rep papain-like protease; enzyme activity, inhibitor): > 20 µM
O=C(c1cncc2cc[nH]c12)N1CCC(=C2c3ccccc3CS(=O)(=O)c3ccccc32)CC1  IC50 (rep main protease; enzyme activity, inhibitor): 0.009 µM and 0.0089 µM
O=C(/C=C/c1ccc(O)cc1)OC[C@H]1O[C@@H](Oc2cc(O)c3c(=O)cc(-c4ccc(O)cc4)oc3c2)[C@H](O)[C@@H](OC(=O)/C=C/c2ccc(O)cc2)[C@@H]1O  IC50 (rep main protease; enzyme activity, inhibitor; together with: fluorogenic substrate): 8.35 ± 0.35 µM
COC(=O)Cn1[se]c2ccccc2c1=O  IC50 (rep main protease; enzyme activity, inhibitor): 0.167 µM
CC(=O)N[C@H](Cc1ccc(O)cc1)C(=O)N[C@@H](CCCNC(=N)N)C(=O)N[C@@H](Cc1ccccc1)C(=O)N[C@H]1CCC[C@@H]1C(=O)N[C@@H](CCCNC(=N)N)C(=O)N[C@@H](CC(N)=O)C(=O)N[C@H]1CCC[C@@H]1C(=O)N[C@H](C(=O)N[C@@H](Cc1ccccc1)C(=O)N[C@H]1CCC[C@@H]1C(=O)N[C@@H](Cc1ccccc1)C(=O)N[C@@H](Cc1ccc(O)cc1)C(=O)N[C@H]1CCC[C@@H]1C(=O)N[C@H](C(=O)N[C@@H](CC(=O)O)C(N)=O)[C@@H](C)O)C(C)C  IC50 (rep main protease; enzyme activity, inhibitor): 0.96 µM
O=C(CCN(Cc1ccco1)C(=O)c1csc(Nc2ccccc2)n1)NCc1cccc(C(F)(F)F)c1  IC50 (rep main protease; Rev-Nluc reporter, inhibitor): < 50 µM
Cc1oc2nc1C(=O)N[C@](C)(C(=O)NCCc1ccc(N3CCCCC3)cc1)c1nc(c(C)o1)C(=O)N[C@](C)(C(=O)NCCc1ccc(N3CCCCC3)cc1)c1nc(c(C)o1)C(=O)N[C@]2(C)C(=O)NCCc1ccc(N2CCCCC2)cc1  IC50 (rep main protease; enzyme activity, inhibitor): 15.3 µM
O=C1CC(c2ccccc2)Oc2cc(O[C@@H]3O[C@H](CO)[C@@H](O)[C@H](O)[C@H]3O)ccc21 (some centres unmarked)  IC50 (rep nsp13 helicase; helicase ATPase activity, inhibitor; together with: poly(A) ssRNA): > 30 µM
